Measurements from different studies.
Numbered parts are unrelated; each lists some results of a single study.

Sample 1 — method: RNA Bind-n-Seq; form: RNA; sample: in vitro; tested at: 365 nM; baseline: no-protein control; direction: higher = stronger binding
Target: RNA binding protein fox-1 homolog 2, RRM domain, GST-SBP tag (RBFOX2, Homo sapiens, UniProt O43251-10, residues 100-194)
Setting: natural RNA segment, single round, ends assumed
All sequences stand within: GGGAGUUCUACAGUCCGACGAUC … UGGAAUUCUCGGGUGCCAA
| Oligonucleotide | RBNS enrichment (R) |
| --- | --- |
| UCCUCUGAUAUGCCUUGUAGCUAAGAUUUAAAAGACUGUUGAACAUAGAUGAGGGGUAUGCAUUUCUUAAAAAUCCAUGAACCCUCAAUUGUAUGCUUUCAGUAUUGUGU | 3.41 |
| AAGCCUGUCAGAGUUUUCAACGGUGCUUAUAGCUGCCAGCUGGAUUCCAAACAGGUACCACAUUGUCUCUGAGCUAAUGUUUAUAUUUUUCCAUUCAGGCACCGAAAUAG | 0.386 |
| UCAUCAUUUUGUAUGGCUGCAUAGUAUUCCAUGGUGUAUAUGUGCCACAUUUUCUUAAUCCAGUCUAUCAUUGUUGGACAUUUGGGUUGGUUCCAAGUCUUUGCUAUUGU | 1.11 |
| CAAUGAUGCCUGUAAAUAUGAAAAUGUGCCUGUAAGAGUAACAGGUAUCGCUGGGCAGUGGUGGCACACGCCUUUAAUCCCAGCAAUUGGGAGGCAGAGGCAGGUGGAUU | 1.44 |
| GGCAAAGGCCCAGGGCACAGGCUUAUCACUCCAGUAUGGAUGGCGGGAGCUAGAGACCAGGAGAUAUGAGGCCAGUGUGAGCUGUGUCACAAGUUCCAGGUCAGCCUGUG | 0.621 |
| GAUGAGCAAGAUUAUGGUUAGUGGGGGCUCUGUGGAGCAUGCACGUAGUGCCCUUCCUUCAUCAGGCCAAAGCACCAAGUUGCUUCACUGCCUCGGCCUUUUGUCCAGCU | 7.97 |
| AUUCUUGAGCUGAAAAUAAAUAAACCAGGAUGGCAGGGACCAACCCCUAAUCCCUCCCCAGCGGCAAGCCCCUCUUUUCAGAGUGGGCAGAGGGUUGCCUAUGGUGGGCA | 0.447 |
| AAUUACUAACUUCUAAAACUGUACUUUGAUUCACAUGUUUUCAAAUGGAGUUGGAGUUCAUUCAUAUUACAAUAUUUGUGUGCUAAACGUGUAUGUUUUUCAGUUCAAAG | 0.385 |
| GACCUGAAAUUGUAUAGUGUUGAUUUGUGCUGAGAUCAAGAGGCAGGUUAGAAGAACCUGACAUCCACUGUUUGCCUUGGAUAGUAUGGCUUGUUUUUGGAAAGAAAUUC | 4.47 |
| AACCGUGUUAGCAGCUCAGGAAGAUGCCGUGAAGCAUUCUUAUUAAACCACCUGCUAUUUCAUUCAAACUGUGUUUCUUUUUUAUUUCCUCAUUUUUCUCCCCUGCUCCU | 0.702 |
| GUAGUUUUUGAACAAGAAAAAGAACUUUGUAAAUCAUAUCAUUGGGAAAGUAUUUUCAAUAUUUAAAAAAAUUAAGCUGAAGAAAAACUGAUCUUUGAUCCUCCUGUGAA | 0.697 |
| CAUUUUCAAAUAUCUUUUCAACUGUAAUGACUAUGACAGGAACUGAUUCAACUCUCAAUUUUCUUUAUGCAUCAUGGUAAAGCAUUGCAGCAGUGUUGUUUUGUUUGAAG | 0.985 |

Sample 2 — method: aptamer microarray, sandwich; form: DNA with 2'F-ANA; sample: in vitro; tested at: 200 nM; together with: Cy3 exosite-II aptamer, 400 nM; direction: higher = stronger binding; oligonucleotide: GGTTGGTGTGGTTGG
Target: Prothrombin, mature alpha-thrombin (F2, Homo sapiens, UniProt P00734)
Setting: whole 15-mer aptamer, many near background
| Modification | mean fluorescence intensity |
| --- | --- |
| 2'F-ANA at 2 3 6 8 10 14 15 | 246 a.u. |
| 2'F-ANA at 1 2 7 8 10 11 13 14 | 55.5 a.u. |
| 2'F-ANA at 2 3 5 6 8 9 12 14 | 52.6 a.u. |
| 2'F-ANA at 2 6 11 13 14 15 | 95.9 a.u. |
| 2'F-ANA at 1 2 3 7 10 | 66.6 a.u. |
| 2'F-ANA at 1 2 3 4 6 8 9 11 12 | 282 a.u. |
| 2'F-ANA at 1 2 5 7 8 10 11 12 15 | 55.6 a.u. |
| 2'F-ANA at 2 3 4 5 10 11 12 13 15 | 74.4 a.u. |
| 2'F-ANA at 1 2 3 4 8 10 11 13 | 74.9 a.u. |
| 2'F-ANA at 1 3 4 8 9 10 13 15 | 56.6 a.u. |
| 2'F-ANA at 1 4 6 8 10 12 14 15 | 52.3 a.u. |
| 2'F-ANA at 2 4 5 6 9 10 13 14 | 47.2 a.u. |
| 2'F-ANA at 1 7 10 12 13 14 15 | 48.2 a.u. |
| 2'F-ANA at 1 3 4 5 7 10 11 12 14 15 | 52.1 a.u. |
| 2'F-ANA at 2 6 7 8 14 | 153 a.u. |
| 2'F-ANA at 1 2 5 8 9 10 12 15 | 52.1 a.u. |
| 2'F-ANA at 11 14 | 226 a.u. |
| 2'F-ANA at 1 2 3 7 8 10 11 12 13 14 15 | 62.3 a.u. |
| 2'F-ANA at 2 5 6 7 8 9 10 11 14 | 72.6 a.u. |
| 2'F-ANA at 1 3 4 5 7 10 11 12 13 15 | 47.3 a.u. |
| 2'F-ANA at 2 4 7 10 13 14 | 62.6 a.u. |
| 2'F-ANA at 1 4 6 10 11 12 13 14 | 45.4 a.u. |
| 2'F-ANA at 2 3 5 8 11 13 15 | 94.6 a.u. |
| 2'F-ANA at 1 4 7 8 9 14 | 63.7 a.u. |
| 2'F-ANA at 4 5 6 7 8 12 13 14 | 79.5 a.u. |

Sample 3 — method: protein binding microarray; form: double-stranded DNA, one strand shown; sample: in vitro; tested at: not given; baseline: not given; direction: higher = stronger binding
Target: Histone acetyltransferase KAT6A, winged helix 2, GST fusion (KAT6A, Homo sapiens, UniProt Q92794, residues 85-181)
Setting: 8-mer, flanks averaged, mean of 2 arrays, mostly near background
Residues (chain): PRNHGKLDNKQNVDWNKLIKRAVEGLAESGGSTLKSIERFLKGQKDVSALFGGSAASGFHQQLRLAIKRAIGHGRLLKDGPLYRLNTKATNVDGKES
| Oligonucleotide | E-score |
| --- | --- |
| TAGTTTAA | 0.175 |
| ATAGCTAA | -0.189 |
| GGGGCCAC | 0.0218 |
| ACGGTCAG | -0.0174 |
| CCCACCGG | 0.196 |
| CAGCGCAG | 0.216 |
| GATGAATC | 0.141 |
| AATTATCC | -0.152 |
| ACGTACGT | -0.334 |
| ATTGATCC | 0.0469 |
| ACGGTTCC | -0.204 |
| ACTCGGTG | -0.0742 |
| GCTGATCA | 0.0114 |
| ACAATTGG | -0.0566 |
| CAAATAAC | -0.0666 |
| CCCCGTGA | 0.0268 |
| AAGGAGTC | -0.113 |
| AGGCGTTA | -0.142 |
| AGGTAACG | -0.0197 |
| ATAAACCA | -0.0429 |
| ATATCCTG | 0.039 |
| CCACACGA | -0.067 |
| AAAACTAC | -0.0247 |
| CGCCAAGC | 0.141 |
| AAAGTCTC | -0.289 |

Sample 4 — method: RNA Bind-n-Seq; form: RNA; sample: in vitro; tested at: 200 nM; setting: whole 134-nt RNA, ends assumed; together with: 150 mM KCl; baseline: input library; direction: higher = stronger binding
Target: Fragile X messenger ribonucleoprotein 1, C-terminal low-complexity region (Fmr1, Mus musculus, UniProt P35922)
All sequences stand within: GGGAGUUCUACAGUCCGACGAUC … UGGAAUUCUCGGGUGUCAAGG
| Oligonucleotide | log2 enrichment |
| --- | --- |
| UCUGAGCAAUUGAAUGCCCUAAACAAGGCUUACCAUGACCUUUGUGAUGGUUCUGCAAAUCAGCUUCAGCAGCUUCAGAGCCAGUUGGCU | -2.41 |
| CCUGUGCUACACAUCGUAUGUACCGAAUCGGAAAAAAGGGGAAAAAAGGGAAAAAAGGGGAAAGUAUUAUGUUACGCCGUUCGGAUCUGC | -0.639 |
| UAACUUUAGAGGAGGAUCUGAUGGAUAUGGCAGUGGACGUGGAUUUGGGGAUGGCUAUAAUGGGUAUGGAGGAGGACCUGGAGGUGGCAC | 0.121 |
| UUGGACUAUGGAUCAGGUACUGUGCUCAGCAUCAGAAAAUGGGAUGACAAUGAACAGAGUAACAGGACUAUAUUUCUGAAAAAGGAUGAA | -0.399 |
| CCUCAAGUCCUGUGCUACACAUCGUAUGUACCGAAUCGGUUGGGUUGGUUGGGAAAGUAUUAUGUUACGCCGUUCGGAUCUGCACUUCCA | 0.0978 |
| UGUGCUACACAUCGUAUGUACCGAAUCGGGGCCCCCCCGGCCCCCCCGGGGCCCCCCCGGGGAAAGUAUUAUGUUACGCCGUUCGGAUCU | -1.54 |
| UGGGAGGUGGAUUUUGUUUAUUUUUUUAGCUCAUUUCAAGGGGUGGGAAUUUUUUUUUAAUAUGUGUCAUGAAUAAAGUUGUUUUUGAAA | 0.227 |
| CCUGUGCUACACAUCGUAUGUACCGAAUCGGAAAAAAAGGGGAAAAAAAGGGAAAAAAAGGAAAGUAUUAUGUUACGCCGUUCGGAUCUG | -1.05 |
| UGGGAGGUGGAUUUUGUUUAUUUUUUUAGCUCAUUUCCAGGGGUGCGAAUUUUUUUUUAAUAUGUGUCAUGAAUAAAGUUGUUUUUGAAA | 0.771 |
| UAACUUUAGAGGAGGAUCUGCUGGAUAUGGCAGUGGACGUGGAUUUGGGGAUGGCUAUAAUGGGUAUGGAGGAGGACCUGGAGGUGGCAA | 0.309 |
| UCCUGUGCUACACAUCGUAUGUACCGAAUCAAACCCCCCCAAACCCCCAAAUUUUUAAAAAAGUAUUAUGUUACGCCGUUCGGAUCUGCA | 0.0547 |
| CUCAAGUCCUGUGCUACACAUCGUAUGUACCGAAUCGGUGGAAAGGAAAAAGGAAAGUAUUAUGUUACGCCGUUCGGAUCUGCACUUCCA | -0.216 |
| CUGUGCUACACAUCGUAUGUACCGAAUCGGCCCCCCCGGGGCCCCCCCGGCCCCCCCGGGGAAAGUAUUAUGUUACGCCGUUCGGAUCUG | -0.799 |
| AAGUCCUGUGCUACACAUCGUAUGUACCGAAUCGGGUUUUGGGGUUUUGGUUUUGGGAAAGUAUUAUGUUACGCCGUUCGGAUCUGCACU | -0.191 |

Other studies, line by line — method: RNA Bind-n-Seq; form: RNA; sample: in vitro; tested at: 100 nM; setting: RNA with constant flanks, ends assumed; baseline: input RNA pool; direction: higher = stronger binding
Target: RING finger protein unkempt homolog, zinc fingers 1-6, SBP tag (UNK, Homo sapiens, UniProt Q9C0B0, residues 30-357)
Chain of UniProt Q9C0B0 (30-357, looked up): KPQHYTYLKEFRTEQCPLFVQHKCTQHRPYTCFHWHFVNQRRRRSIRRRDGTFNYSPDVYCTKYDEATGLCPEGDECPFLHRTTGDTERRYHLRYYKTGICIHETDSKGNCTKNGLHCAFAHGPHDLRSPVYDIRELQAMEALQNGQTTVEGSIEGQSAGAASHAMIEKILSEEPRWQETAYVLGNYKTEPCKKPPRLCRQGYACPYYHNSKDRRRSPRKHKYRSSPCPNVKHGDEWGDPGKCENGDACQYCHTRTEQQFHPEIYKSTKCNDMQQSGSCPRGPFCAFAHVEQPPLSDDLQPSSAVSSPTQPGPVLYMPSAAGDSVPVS
| Oligonucleotide | bound/input enrichment [ratio] |
| --- | --- |
| GGGAGUUCUACAGUCCGACGAUCGGGCGGCCGGUGGGGGAAUCCCCUGCCUUGGCCUUGCCUCCCCUUCCUGCCACGUGCCCCCCGUUAUUUUUUUUUUUUUAACACCAUGUGAUUAAGGUCGGCGCUGCCUCCCCCGACCCACAACAGAGGAUUGAGCAUCA | 1.3 |
| GGGAGUUCUACAGUCCGACGAUCAUUCCGAAUGUUAAUAAAUUGCUCUGAGUUUCCUCAAGUCCAUUUUGUAAGAUCAGACCACCGGUGGGUGUUGUUUCUUUUAAGUGUGUGUACUGUGUCCAAUGUUACAUUUUCCGAAGUCAACAGAGGAUUGAGCAUCA | 0.548 |
